# Results collected from several papers.
# Parts stem from different laboratories: compare values within a part only. Positions count from the first letter of the parent shown.

# Study 1
# Target: Phosphate system positive regulatory protein PHO4, full length, GST-tagged (PHO4, Saccharomyces cerevisiae, UniProt P07270, residues 1-312)
# Method: competition protein-binding microarray
# Molecule type: double-stranded DNA, one strand shown
# Matrix: in vitro
# Concentration: 2 µM
# Notes: whole 60-bp probe, lowest competitor level
# Together with: Cbf1 competitor, 0.05 µM
# Direction: higher = stronger binding
# All sequences stand within: … GTCTTGATTCGCTTGACGCTGCTG
# Residues (chain): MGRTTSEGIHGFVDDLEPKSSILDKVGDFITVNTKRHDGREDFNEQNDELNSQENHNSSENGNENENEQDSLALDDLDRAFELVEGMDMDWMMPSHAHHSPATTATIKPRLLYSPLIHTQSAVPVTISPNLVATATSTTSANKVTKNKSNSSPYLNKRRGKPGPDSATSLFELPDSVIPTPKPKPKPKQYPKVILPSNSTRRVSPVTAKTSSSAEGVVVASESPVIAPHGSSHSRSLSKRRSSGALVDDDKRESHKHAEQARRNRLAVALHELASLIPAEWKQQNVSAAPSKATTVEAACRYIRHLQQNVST
Oligonucleotide,fluorescence intensity [a.u.]
AACAGTGGTTCCTGTTCCGTGACGGGTGCTACAACT,3700
TAGTGATTGTTGGATCATATGACTGTGGGAAAATAA,3760
ACCTTTCAGTTTCCGCGCGTGACTCGGATTTGGCGG,9650
CGGGGTTAAGTTTGGGCAGTGGGTGGCTTGCAGCAG,4660
TTGGCGACTATTTAGCACGTGAGTATACTTGATTAA,15900
TGGTCAGACGCAGCGGGCGTGCTTTTGGACTGCTTG,6620
CGTCCTAGTGATTGCTCTGTGGGTGCCATGAGGAAG,6530
CTTTCCCGATCTTGTACAGTGGGTGTAGCACATTTG,4180

# Study 2
# Target: Hepatocyte nuclear factor 3-alpha (Foxa1, Mus musculus, UniProt P35582, residues 1-468, full length assumed)
# Method: EMSA with sequencing
# Molecule type: double-stranded DNA, one strand shown
# Matrix: in vitro
# Concentration: 10 and 20 nM
# Notes: whole designed probe, mean of two concentrations, ends assumed
# Relative to: negative control set to 0
# Direction: higher = stronger binding
# All sequences stand within: GTGAGCGGTGCCCATTGATGGGGAAC … TTTCACTGGGATCGTGGGGAC
# Residues (chain): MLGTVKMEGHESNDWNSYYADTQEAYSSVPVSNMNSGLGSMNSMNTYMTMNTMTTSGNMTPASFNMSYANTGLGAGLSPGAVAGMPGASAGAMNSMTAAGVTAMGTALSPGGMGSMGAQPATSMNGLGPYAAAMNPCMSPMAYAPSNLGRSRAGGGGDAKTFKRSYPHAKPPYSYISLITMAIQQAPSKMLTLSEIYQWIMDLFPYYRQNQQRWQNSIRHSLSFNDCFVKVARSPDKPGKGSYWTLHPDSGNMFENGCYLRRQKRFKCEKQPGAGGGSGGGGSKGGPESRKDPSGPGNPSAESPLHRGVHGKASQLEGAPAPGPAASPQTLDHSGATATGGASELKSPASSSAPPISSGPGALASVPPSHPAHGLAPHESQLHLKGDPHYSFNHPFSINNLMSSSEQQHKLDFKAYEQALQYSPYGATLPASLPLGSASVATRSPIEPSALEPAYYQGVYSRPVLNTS
Oligonucleotide,normalised bound fraction
GTGTTCAGGTGGCCAGATGCCAGGCGCCTCCCTGTTATTTGTATTAGTCCTTCACCTAGAAACAACAGATGCTGTGGTGACTCAGGGAGACATGTTTACAGTAGGAGAGACTAAGAGATAGCTTCCTGGAGGCTAAAGTGATGGCACACACAGGAACTGAGACTTCCATAACTTTTCTGGAACTGGAGTAGAA,0.271 ratio
ATCTTCCCCCTCTTCCTTGCCCCACCAGCTCACCTTCCCGGGTTATTTGCAGATAGGAAAATAAATAAAGCCGGCATTCGTTAACCCTCTTCTGGCGCAAACTGCTGTTTGCTCTGGATGAATCATGGTCCTTTGGCGACGCCAGGCTCCGGGAGAGCAAAGCACCGTGTCAGGGCCTAGGCCAGTGGTGGCC,0.323 ratio
CATATTTTCTTCTAATCAGCTAACTATATACACATATTTTGAAAATTACAAGGCCTGAAAAAACATCAAGCTATAAATGTTATTGTTATTCATGTTTACATTATACCTTATATTTTTAGAACTTCTAAGTTTCTTCACAATTTTTTTTTCTTCTGGGTGAGATATGTGTTATTATCGTAATTTTCACATGAAT,0.367 ratio
CTGCTTTATTAGTTACATGAGTTGGGCAAAACCTTTTGGAATAGACCAGTGTCACCAAGACAACAGGACGGTTATAGAAAGGCAGAAAAACAATGTAATCTAACATTTTATAAGCATAAATAATAATAGTTATTCTTCTATATACATTCAGTGTCTCTAAGCAGATCCAAAGATTTGCCAAGTTTTAATGAGA,-0.0101 ratio
CTCTCTGGTGGTTCTAGCTCATACACGGCTAATGATTTATGAGGCAGTGTTGTGTGGCACTACCTAGCTGTTACTTTCTTGCCTACTCTGCTGAGTAAACAGGGGCCCTGTCTTAGCTGGGTTTGAAGTCTGTTCCCTAGGGAAGGGCACTGTGTCCCCGAGTCACCAGAGAGGAGGGGCAAGGGCATCTCCT,0.272 ratio
TAATAACGGCAATTCAGCACCCTCTTTCAAAGTAATATCACTGCAAATGGATCAGATAATAAAATGGAGCACTATAGCAATTCTGTGCACAAAATAATTTAGAAACCTGAACGCCCTGACAATGGTTCTACAATGAACACCAGAAAATTCCAAGCTAAACCACTGGTTCAACCCACTTACTGGGTTAAAGAGA,-0.0569 ratio
GCCGGTATTTACCCACAATCTCTGTTTTGGAAGTAATTAATCTTCGAATGTAGGAGCCCCTTTGTGGTGGAAAGCGCACGCTGACACTTTTGTGTAAACACCCAGCTTAGCATATTGACAAACTGGTGGCTGTTACTTTGATCCCGGGCTGCCGGCTCTGAAAAGGCAAGCCAGCTCCGGGCTGCCCCACCGG,0.303 ratio
CTGCTTAATTAATTAGAAGTCCACAGGATATCAAATGCCCTAAATGCTAGGCCAGCACTCTTCATTTTCCTATTTAATCCTTTGTTTTTACTTGTTTACTTTTCTCTAAAACTTTTTTCCCCCCTCAAAGCTCATGATGGATAAAAGCATTGCATTTTCTTCACATTAATCAGTTTTAACATCACAGGCAAAA,0.432 ratio

# Other studies, line by line
# P1: viral docking peptide; CKVKRKLFGSENI; partner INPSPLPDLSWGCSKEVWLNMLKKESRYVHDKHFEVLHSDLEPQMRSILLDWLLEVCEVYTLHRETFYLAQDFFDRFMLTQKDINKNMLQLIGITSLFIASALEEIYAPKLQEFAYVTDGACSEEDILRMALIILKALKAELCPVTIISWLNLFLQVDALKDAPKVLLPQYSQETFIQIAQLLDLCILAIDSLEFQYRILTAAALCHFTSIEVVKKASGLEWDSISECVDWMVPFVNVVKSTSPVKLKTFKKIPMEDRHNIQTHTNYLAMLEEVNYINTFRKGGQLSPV
Substance,target,test,test system,setting,how to read,measurement,value
P1 G9A,"CCNE2, cyclin fold, Cln2 fusion (human)","yeast growth competition, sequencing",yeast,strong parent motif,"relative to: not given, higher = stronger binding",normalised enrichment score,4.64
"PhoQ, residues 284 288 289 292 302 303 ASASEQ","PhoP, residues 12 14 15 18 19 NHFRA (Escherichia coli, UniProt P23836)","Sort-seq, refers to: YFP reporter",E. coli,"PhoQ-PhoP variant library, together with: 10 µM Mg2+","relative to: high Mg2+ state, higher = stronger signaling",fold induction,1.69

# Some of these lines once more (study 2):
Oligonucleotide,normalised bound fraction
CTCTCTGGTGGTTCTAGCTCATACACGGCTAATGATTTATGAGGCAGTGTTGTGTGGCACTACCTAGCTGTTACTTTCTTGCCTACTCTGCTGAGTAAACAGGGGCCCTGTCTTAGCTGGGTTTGAAGTCTGTTCCCTAGGGAAGGGCACTGTGTCCCCGAGTCACCAGAGAGGAGGGGCAAGGGCATCTCCT,0.272 ratio
